Results pooled from the literature.
A part holds a random share of what one study measured.

Block 1
Target: RNA binding protein fox-1 homolog 2, RRM domain, GST-SBP tag (RBFOX2, Homo sapiens, UniProt O43251-10, residues 100-194)
Technique: RNA Bind-n-Seq
Form: RNA
Matrix: in vitro
Tested at: 365 nM
Setting: natural RNA segment, single round, ends assumed
Relative to: no-protein control
Reading: higher = stronger binding
Constant ends, left off below: GGGAGUUCUACAGUCCGACGAUC … UGGAAUUCUCGGGUGCCAA
Target sequence (chain): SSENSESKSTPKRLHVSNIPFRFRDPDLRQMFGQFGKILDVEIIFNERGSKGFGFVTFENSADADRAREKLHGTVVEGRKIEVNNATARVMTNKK
Under “RBNS enrichment (R)”, `UGUAGCAGCUCGGGCCUCAUCUCAGCGCUCGGAUCCCUCCUGCUGCCAGAAUCCACUGGCCUCUGUCUCAUUCUUGGGUUUUCCUGCUGUCUUCGUUUACGUCUCUGUCC` is recorded as 0.315.
`AGGGCUUUCUUGGCUUUGGCGAAGGUCAGUGUACAGACAUUCCAUGGUACCAGAGUGCUCAGAAACUCAAGAUAGGAUAUGCCUCACCCUCAGCUACUCCUUGUUUUAAA` — result for “RBNS enrichment (R)”: 0.301.
`GGGCUCAAUCUGGGCAAUGACCCCGACCGAGGCACGUCCAUUGAGCAGCAGACAGCUCCGCCCAUCCUAGGACUCCCCCAAAGGAGCAACUGUAAUGUGGGACUAACAUG`: “RBNS enrichment (R)” 0.401.
`GUUAAGUUCAGCCAAGGGACCCAAUGCAGACAUCCUUCGUGGACAGGGUUCAGCCUUGGGAGGCCAGGCUGGCUGGCUCACUCUCUUUCUCAUUCACUGCCAGACCCCAC`: “RBNS enrichment (R)” 0.418.
For `AACACUACUGACUUAGACUGCUGACUGCCAGAGGUAGCUACCCUCAUGCCAUCGCCAUGACCCCCCCUGGCAUGCCACCUCAGGGGCAUGCACCUUCAAGUGCCUUUCAC`, “RBNS enrichment (R)” read 0.505.
`AGCAAGUUCCAUGAUAUUAAAUCCAGGUCUGCAUUGGCCCGGGGCAAGAGUUUAACAUCUUCGGCCCUGCAUUCCUACAUCUUGUGUCUGUACACGUUCUUAAGCAGCGU` — result for “RBNS enrichment (R)”: 0.525.
For `AUGGGAACCCACCUCCUGCAUCAGUGUGACCUGGAUGUGAGACAUGGAGUCAAAGGAGACCAUUUUGGAGCUUUAAGAUUUAACUGCCCUGCUGGAUUUCAGACUUGCAU`, “RBNS enrichment (R)” read 0.427.
Under “RBNS enrichment (R)”, `UAUUAGAGCCCAUCCUGGAGCCCCACCUCUGAACCACCUCCUACCAGCUGUCCCUCAGGCUGGGGGAAAACAGGUGUUUGAUUUGUCACCGUUGGAGCUUGGAUAUGUGC` is recorded as 0.437.
Under “RBNS enrichment (R)”, `CGCAGGGAAGACCUGUGGCUAGGAGCAGGCUUUCAGCUGACAUGAAGAUGGCCCCCGCACAGCCUUCAUCUCAUCCUGUGGGACUCUGACGUCACAGAACACCCAGGAAA` is recorded as 0.314.
Under “RBNS enrichment (R)”, `GCCUUGGACUUAGAUCUGGGUUCUAACAGACUGAAUGUGCACCUUGGGUCUCAGACUCAGUUUCCCCGUUCAUACAUACAGGGAGUAUGAAGUCAGGUAGCCUAAGAUCU` is recorded as 0.417.
For `GUAGGAUCCUCUGCAGAUUUCCACUGCUGUCCCUGGCCAGAGUGCAGGAACCAGAGGACCCAGAGAAGGCGGUGGGGACCCAGCCUGGCGCCAGGGAGUGUGCCCCCAAU`, “RBNS enrichment (R)” read 0.338.
For `AAAAAAAACAAAAAGCAAAAAACAAAAACCUACCCUGUUCUGGUUUUUUUCCUCCCUUUAGUUCCACCCCCAACCCCCAUUCCCUGGUGUCCUUCUUAGAGAUGAAGAAA`, “RBNS enrichment (R)” read 0.882.

Block 2
Target: PABPC1L2, full length, GST fusion (mouse, UniProt A0ABA7IW68)
Technique: RNAcompete
Form: RNA
Matrix: in vitro
Tested at: 20 nM
Setting: 7-mer, probes averaged, single round
Relative to: mean of 7-mers
Reading: higher = stronger binding
Target sequence (chain): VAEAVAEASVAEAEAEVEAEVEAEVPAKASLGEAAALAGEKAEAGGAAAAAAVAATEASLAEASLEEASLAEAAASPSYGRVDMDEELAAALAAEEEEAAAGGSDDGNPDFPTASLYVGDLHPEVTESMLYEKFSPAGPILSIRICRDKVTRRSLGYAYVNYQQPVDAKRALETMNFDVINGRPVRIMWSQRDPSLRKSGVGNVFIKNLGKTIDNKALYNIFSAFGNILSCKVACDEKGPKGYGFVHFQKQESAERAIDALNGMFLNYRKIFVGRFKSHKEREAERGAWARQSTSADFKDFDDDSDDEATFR
The 7-mer Z-score of `UGAGCCA` is reported as -0.202.
`AUGAAUA` gave a 7-mer Z-score of 0.106.
With `CUGCUAA` the 7-mer Z-score was -0.0391.
`GACGGCA` has a 7-mer Z-score of 0.128.
`GUCUUCG` gave a 7-mer Z-score of -0.383.
`CCAUCCC` has a 7-mer Z-score of -0.374.
The 7-mer Z-score of `CCAUAAC` is reported as -0.248.
`UCUACGC` gave a 7-mer Z-score of -0.331.
`CCGGGAA` has a 7-mer Z-score of 0.0116.
For `UGUCGCC`, the 7-mer Z-score was -0.505.
`CUAUUCC` gave a 7-mer Z-score of -0.402.
The 7-mer Z-score of `GAUGAGC` is reported as -0.0301.
`ACGAAGC` has a 7-mer Z-score of -0.0283.
`GCGUUUG` has a 7-mer Z-score of -0.434.
`AAUCUUC` gave a 7-mer Z-score of -0.235.
For `ACCGCCU`, the 7-mer Z-score was -0.229.
`AUAUAUC` has a 7-mer Z-score of -0.117.
`CGUAAUA` has a 7-mer Z-score of -0.0863.

Block 3
Target: Sal-like protein 4, full length isoform A (SALL4, Homo sapiens, UniProt Q9UJQ4, residues 1-1053)
Chain of UniProt Q9UJQ4 (whole entry, looked up): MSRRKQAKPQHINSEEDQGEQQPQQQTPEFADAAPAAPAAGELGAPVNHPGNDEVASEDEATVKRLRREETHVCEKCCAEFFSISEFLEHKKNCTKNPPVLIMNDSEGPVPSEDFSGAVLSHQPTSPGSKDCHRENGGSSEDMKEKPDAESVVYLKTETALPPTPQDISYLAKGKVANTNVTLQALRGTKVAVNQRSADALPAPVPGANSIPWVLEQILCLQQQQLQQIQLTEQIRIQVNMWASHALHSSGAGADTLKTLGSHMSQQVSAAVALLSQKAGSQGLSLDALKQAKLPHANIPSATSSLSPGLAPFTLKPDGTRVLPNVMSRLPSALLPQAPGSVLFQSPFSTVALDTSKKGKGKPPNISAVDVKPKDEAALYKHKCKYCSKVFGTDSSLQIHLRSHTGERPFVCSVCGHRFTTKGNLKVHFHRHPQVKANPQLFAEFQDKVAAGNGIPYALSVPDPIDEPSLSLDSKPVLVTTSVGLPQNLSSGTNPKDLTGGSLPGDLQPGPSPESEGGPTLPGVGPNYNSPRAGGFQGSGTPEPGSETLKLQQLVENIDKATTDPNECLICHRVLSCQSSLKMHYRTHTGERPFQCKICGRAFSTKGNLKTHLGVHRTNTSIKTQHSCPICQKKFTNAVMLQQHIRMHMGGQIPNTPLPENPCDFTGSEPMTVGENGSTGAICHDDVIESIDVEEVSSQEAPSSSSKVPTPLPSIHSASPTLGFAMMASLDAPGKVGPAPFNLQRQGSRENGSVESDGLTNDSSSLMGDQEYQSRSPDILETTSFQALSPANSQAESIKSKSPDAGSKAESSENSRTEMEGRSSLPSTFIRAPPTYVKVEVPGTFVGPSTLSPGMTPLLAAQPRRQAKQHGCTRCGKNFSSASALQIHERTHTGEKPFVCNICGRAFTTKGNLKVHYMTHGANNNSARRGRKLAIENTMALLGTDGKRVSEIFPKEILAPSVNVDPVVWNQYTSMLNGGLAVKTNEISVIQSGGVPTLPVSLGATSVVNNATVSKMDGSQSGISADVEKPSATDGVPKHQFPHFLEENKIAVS
Technique: universal PBM
Form: double-stranded DNA, one strand shown
Matrix: in vitro
Tested at: 600 nM
Setting: 8-mer, flanks averaged, mean of replicates
Reading: higher = stronger binding
The E-score of `ACACTGCT` is reported as -0.0709.
`CGATCGCA` has an E-score of 0.0227.
`AGTAATTA` has an E-score of 0.36.
`CGTGCATC` has an E-score of -0.214.
`CATCTTGC` has an E-score of -0.0456.
The E-score of `ACGTGAAG` is reported as 0.0651.
With `ATAGAATA` the E-score was 0.348.
`AGGGCCGC` has an E-score of -0.43.
For `AAGCTGCT`, the E-score was -0.123.
The E-score of `CTACGAAA` is reported as 0.079.
For `GCATAGCA`, the E-score was 0.133.
The E-score of `AAGGGCGG` is reported as -0.298.
`CCCTTGCC` gave an E-score of -0.238.
For `ACGTCCCC`, the E-score was -0.205.
The E-score of `CTGCTGGC` is reported as -0.336.
With `CGTGTTGA` the E-score was 0.048.
`CCCCCAAA` has an E-score of -0.0624.
For `ACGAAATC`, the E-score was 0.08.
With `ATGTTCTA` the E-score was 0.0937.

Block 4
Target: Fragile X messenger ribonucleoprotein 1, C-terminal low-complexity region (Fmr1, Mus musculus, UniProt P35922)
Technique: RNA Bind-n-Seq
Form: RNA
Matrix: in vitro
Tested at: 200 nM
Setting: whole 134-nt RNA, ends assumed
Together with: 150 mM KCl
Relative to: input library
Reading: higher = stronger binding
Constant ends, left off below: GGGAGUUCUACAGUCCGACGAUC … UGGAAUUCUCGGGUGUCAAGG
The log2 enrichment of `GCAGGAAGUAAAAACAAAUGGAAAUGCUUCGGAUAGUGGCAGGGGUGGGGGUUGCUAAGGAAAAAAUGGGAUGGGAGUGGGUAAAGAGUU` is reported as 0.214.
`CCUCAAGUCCUGUGCUACACAUCGUAUGUACCGAAUCGGGGUGGUGGGGUGGAAAGUAUUAUGUUACGCCGUUCGGAUCUGCACUUCCAG` gave a log2 enrichment of 0.617.
With `CUCAAGUCCUGUGCUACACAUCGUAUGUACCGAAUCGGGAAAGGGUGGGAGGGAAAGUAUUAUGUUACGCCGUUCGGAUCUGCACUUCCA` the log2 enrichment was 1.29.
`UCAAGUCCUGUGCUACACAUCGUAUGUACCGAAUCGGGUGGGUUUUUGGGAGGGAAAGUAUUAUGUUACGCCGUUCGGAUCUGCACUUCC` gave a log2 enrichment of 1.21.
`CACAGACAACACGCACCCACACAGACACAGAGGGAAGGGGUUGGGAUGGGGACAGGGUGCACAACAGGGCGGGGUAGGACCCCAGCCCCU` has a log2 enrichment of 1.27.
`GUCCUGUGCUACACAUCGUAUGUACCGAAUCGGGGUGGGGAAAAAAAGGGGAAAGGGGAAAGUAUUAUGUUACGCCGUUCGGAUCUGCAC` gave a log2 enrichment of 0.457.
With `UGGCCCUGGUGGCAUGCGGGGAGGAAGAUGUGGCCUCAUGGAUCGUGGUGGUCCCGGUGGAAUGUUCAGAGGUGGCCGUGGUGGAGACAG` the log2 enrichment was 0.0744.
For `ACCAUGCAGGUGGGCAUCUUUGGGAAGUGGGGCAAGGGGGGGAUAGGGAGGGGGGUAACACUUUGGGAACAGGUAAACCCAGGUCGUUUC`, the log2 enrichment was 0.528.
`CCUGUGCUACACAUCGUAUGUACCGAAUCGGGGCCCCCCCGGCCCCCCCGGGCCCCCCCGGAAAGUAUUAUGUUACGCCGUUCGGAUCUG` gave a log2 enrichment of -0.481.
`GUCCUGUGCUACACAUCGUAUGUACCGAAUCGGGUUUUUGGGUUUGGGAAAAAAAGGGAAAGUAUUAUGUUACGCCGUUCGGAUCUGCAC` gave a log2 enrichment of -0.45.

Block 5
Target: Histone acetyltransferase KAT6A, winged helix 2, GST fusion (KAT6A, Homo sapiens, UniProt Q92794, residues 85-181)
Technique: protein binding microarray
Form: double-stranded DNA, one strand shown
Matrix: in vitro
Tested at: not given
Setting: 8-mer, flanks averaged, mean of 2 arrays, mostly near background
Relative to: not given
Reading: higher = stronger binding
Target sequence (chain): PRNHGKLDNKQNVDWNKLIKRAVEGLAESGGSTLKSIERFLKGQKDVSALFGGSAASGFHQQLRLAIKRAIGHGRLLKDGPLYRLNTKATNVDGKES
For `ATGGCACC`, the E-score was -0.103.
`ACCGTGGA` gave an E-score of -0.123.
`CACTCAAC` gave an E-score of 0.055.
For `GACGTAAC`, the E-score was -0.15.
For `CCAAGGCG`, the E-score was 0.0217.
`GAAGTCCC` has an E-score of -0.287.
The E-score of `AATGCTGA` is reported as -0.00511.
The E-score of `GCAGCCCC` is reported as 0.188.
`CAGCTTCG` gave an E-score of 0.0237.
With `GGACCGGA` the E-score was 0.096.
`ACCGCCAC` gave an E-score of 0.0309.
For `CGCTTTAC`, the E-score was -0.145.
With `ACCTGCTG` the E-score was 0.102.
The E-score of `AACATTGC` is reported as -0.216.
With `CAGCACTC` the E-score was -0.0424.
For `CTCTTCAC`, the E-score was -0.0541.
For `CAGTAGGG`, the E-score was -0.0912.
For `AGCATTTG`, the E-score was -0.0567.
For `CGCGCGCG`, the E-score was 0.3.
`ATTTCTTG` gave an E-score of 0.12.
The E-score of `CACTTAAC` is reported as -0.151.
The E-score of `GCGCCATA` is reported as 0.094.
For `GGTGCACA`, the E-score was -0.14.
With `GAAGAGCC` the E-score was 0.0712.
With `ATGCAGCG` the E-score was -0.0456.

A few entries again (block 2):
`AUGAAUA` gave a 7-mer Z-score of 0.106.
`CCGGGAA` has a 7-mer Z-score of 0.0116.
The 7-mer Z-score of `GAUGAGC` is reported as -0.0301.
`GUCUUCG` gave a 7-mer Z-score of -0.383.
`CUAUUCC` gave a 7-mer Z-score of -0.402.
`CGUAAUA` has a 7-mer Z-score of -0.0863.
